Experimental data from different studies.
Lines come from different studies, so protocols differ. Numbers after ± are the reported error.
B1: TRM112 N43R (Saccharomyces cerevisiae, UniProt P53738); chain MKFLTTNFLKCSVKACDTSNDNFPLQYDGSKCQLVQDESIEFRPEFLLNIVDRVDWPAVLTVAAELGNNALPPTKPSFPSSIQELTDDDMAILNDLHTLLLQTSIAEGEMKCRNCGHIYYIKNGIPNLLLPPHLV
B2: MIF4GD E200A (Homo sapiens, UniProt A9UHW6); sequence looked up; chain MGEPSREEYKIQSFDAETQQLLKTALKDPGAVDLEKVANVIVDHSLQDCVFSKEAGRMCYAIIQAESKQAGQSVFRRGLLNRLQQEYQAREQLRARSLQGWVCYVTFICNIFDYLRVNNMPMMALVNPVYDCLFRLAQPDSLSKEEEVDCLVLQLHRVGEQLEKMNGQRMDELFVLIRDGFLLPTGLSSLAQLLLLEIIAFRAAGWKTTPAAHKYYYSEVSD
B3: UGT1A9 (Homo sapiens, UniProt O60656); chain GKLLVVPMDGSHWFTMRSVVEKLILRGHEVVVVMPEVSWQLGRSLNCTVKTYSTSYTLEDLDREFKAFAHAQWKAQVRSIYSLLMGSYNDIFDLFFSNCRSLFKDKKLVEYLKESSFDAVFLDPFDNCGLIVAKYFSLPSVVFARGILCHYLEEGAQCPAPLSYVPRILLGFSDAMTFKERVRNHIMHLEEHLLCHRFFKNALEIASEILQTPVTEYDLYSHTSIWLLRTDFVLDYPKPVMPNMIFIGGINCHQGKPLPMEFEAYINASGEHGIVVFSLGSMVSEIPEKKAMAIADALGKIPQTVLWRYTGTRPSNLANNTILVKWLPQNDLLGHPMTRAFITHAGSHGVYESICNGVPMVMMPLFGDQMDNAKRMETKGAGVTLNVLEMTSEDLENALKAVINDKSYKENIMRLSSLHKDRPVEPLDLAVFWVEFVMRHKGAPHLRPAAHDLTWYQYHSLDVIGFLLAVVLTVAFITFKCCAYGYRKCLGKKGRVKKAHKSKTH
B4: Calhm3 (Mus musculus, UniProt J3QMI4); chain MDRFRMLFQHLQSSSESVMNGICLLLAAVTVKIYSSLDFNCPCLERYNALYGLGLLLTPPLALFLCGLLVNRQSVLMVEEWRRPAGHRRKDLGIIRYMCSSVLQRALAAPLVWILLALLDGKCFVCAFSNSVDPEKFLDFANMTPRQVQLFLAKVPCKEDELVKNSPARKAVSRYLRCLSQAIGWSITLLVIVVAFLARCLRPCFDQTVFLQRRYWSNYMDLEQKLFDETCCEHARDFAHRCVLHFFANMQSELRALGLRRDPAGGIPESQESSEPPELREDRDSGNGKAHLRAISSREQVDQLLSTWYSSKPPLDLAASPRRWGPGLNHRAPIAAPGTKLCHQLNV
B5: spy (Escherichia coli, UniProt P77754); chain MRKLTALFVASTLALGAANLAHAADTTTAAPADAKPMMHHKGKFGPHQDMMFKDLNLTDAQKQQIREIMKGQRDQMKRPPLEERRAMHDIIASDTFDKVKAEAQIAKMEEQRKANMLAHMETQNKIYNILTPEQKKQFNANFEKRLTERPAAKGKMPATAE
Chain of UniProt Q62120 (whole entry, looked up): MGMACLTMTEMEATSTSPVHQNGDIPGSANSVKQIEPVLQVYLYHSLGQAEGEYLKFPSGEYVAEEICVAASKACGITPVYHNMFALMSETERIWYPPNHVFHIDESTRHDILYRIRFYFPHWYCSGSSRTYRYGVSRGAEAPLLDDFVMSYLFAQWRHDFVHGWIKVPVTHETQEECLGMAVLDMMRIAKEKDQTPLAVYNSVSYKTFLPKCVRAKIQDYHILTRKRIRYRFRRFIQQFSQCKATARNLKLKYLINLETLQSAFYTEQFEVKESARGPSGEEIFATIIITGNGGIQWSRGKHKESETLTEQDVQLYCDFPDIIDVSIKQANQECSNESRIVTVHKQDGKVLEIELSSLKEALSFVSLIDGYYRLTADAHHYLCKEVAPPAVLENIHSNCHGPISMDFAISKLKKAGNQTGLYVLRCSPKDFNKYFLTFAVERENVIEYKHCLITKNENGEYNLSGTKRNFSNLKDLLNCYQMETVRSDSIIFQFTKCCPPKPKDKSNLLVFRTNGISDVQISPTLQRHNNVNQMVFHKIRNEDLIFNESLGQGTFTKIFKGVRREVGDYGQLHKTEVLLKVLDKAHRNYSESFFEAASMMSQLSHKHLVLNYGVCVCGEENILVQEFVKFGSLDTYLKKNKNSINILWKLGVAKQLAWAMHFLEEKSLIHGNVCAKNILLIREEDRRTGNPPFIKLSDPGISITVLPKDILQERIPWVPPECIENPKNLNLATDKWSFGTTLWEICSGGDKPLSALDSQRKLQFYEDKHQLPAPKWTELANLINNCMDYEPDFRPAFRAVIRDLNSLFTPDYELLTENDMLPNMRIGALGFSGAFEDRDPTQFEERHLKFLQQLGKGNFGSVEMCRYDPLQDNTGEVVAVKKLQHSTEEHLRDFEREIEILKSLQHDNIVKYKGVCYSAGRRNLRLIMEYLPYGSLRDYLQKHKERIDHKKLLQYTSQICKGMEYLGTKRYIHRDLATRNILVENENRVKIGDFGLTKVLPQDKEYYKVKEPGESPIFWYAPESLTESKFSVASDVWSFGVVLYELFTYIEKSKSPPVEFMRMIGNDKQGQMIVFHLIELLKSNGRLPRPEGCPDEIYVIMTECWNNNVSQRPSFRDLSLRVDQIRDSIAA
Chain of UniProt Q03920 (whole entry, looked up): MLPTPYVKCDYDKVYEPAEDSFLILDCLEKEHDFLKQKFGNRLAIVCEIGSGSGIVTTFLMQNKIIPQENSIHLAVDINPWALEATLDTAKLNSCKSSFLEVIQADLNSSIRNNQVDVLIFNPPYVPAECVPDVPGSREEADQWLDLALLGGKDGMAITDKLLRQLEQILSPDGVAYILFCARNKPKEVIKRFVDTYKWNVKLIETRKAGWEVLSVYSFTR
Chain of UniProt Q14493 (whole entry, looked up): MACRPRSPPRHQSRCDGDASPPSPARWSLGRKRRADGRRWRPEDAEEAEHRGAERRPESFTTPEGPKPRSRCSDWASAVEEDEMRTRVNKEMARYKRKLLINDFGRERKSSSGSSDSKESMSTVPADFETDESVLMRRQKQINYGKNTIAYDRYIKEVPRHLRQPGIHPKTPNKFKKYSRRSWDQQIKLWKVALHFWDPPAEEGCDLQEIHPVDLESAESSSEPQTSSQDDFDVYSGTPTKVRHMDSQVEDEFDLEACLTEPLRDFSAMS
Chain of UniProt P14780 (whole entry, unmodified, looked up): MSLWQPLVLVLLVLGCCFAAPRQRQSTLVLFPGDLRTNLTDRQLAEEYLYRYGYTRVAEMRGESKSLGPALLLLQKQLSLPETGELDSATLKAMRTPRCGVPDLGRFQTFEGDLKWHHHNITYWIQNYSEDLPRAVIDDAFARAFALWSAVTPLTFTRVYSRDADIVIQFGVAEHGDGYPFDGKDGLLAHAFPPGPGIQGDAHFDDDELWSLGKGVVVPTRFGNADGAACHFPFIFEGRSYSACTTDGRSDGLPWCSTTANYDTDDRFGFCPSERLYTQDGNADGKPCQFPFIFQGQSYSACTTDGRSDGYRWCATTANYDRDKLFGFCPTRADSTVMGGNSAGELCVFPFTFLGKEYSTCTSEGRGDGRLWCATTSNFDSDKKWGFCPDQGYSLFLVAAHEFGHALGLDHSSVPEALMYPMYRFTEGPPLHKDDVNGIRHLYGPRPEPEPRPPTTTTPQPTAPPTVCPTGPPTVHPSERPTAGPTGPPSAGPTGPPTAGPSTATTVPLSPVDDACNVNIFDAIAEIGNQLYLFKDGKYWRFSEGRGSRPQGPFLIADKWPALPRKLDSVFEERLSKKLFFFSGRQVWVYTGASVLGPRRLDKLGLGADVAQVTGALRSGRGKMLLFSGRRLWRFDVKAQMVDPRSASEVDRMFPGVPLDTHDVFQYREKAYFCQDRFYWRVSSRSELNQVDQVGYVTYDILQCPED
Chain of UniProt D3Z291 (whole entry, looked up): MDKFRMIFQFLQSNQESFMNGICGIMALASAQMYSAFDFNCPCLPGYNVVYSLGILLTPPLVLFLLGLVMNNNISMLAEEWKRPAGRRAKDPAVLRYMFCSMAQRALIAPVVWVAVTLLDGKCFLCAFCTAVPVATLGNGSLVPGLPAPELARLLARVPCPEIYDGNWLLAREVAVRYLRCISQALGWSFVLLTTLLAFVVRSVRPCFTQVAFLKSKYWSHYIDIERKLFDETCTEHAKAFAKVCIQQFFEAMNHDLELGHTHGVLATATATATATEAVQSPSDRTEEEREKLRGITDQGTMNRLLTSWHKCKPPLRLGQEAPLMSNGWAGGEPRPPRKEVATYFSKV
Chain of UniProt P10147 (whole entry, looked up): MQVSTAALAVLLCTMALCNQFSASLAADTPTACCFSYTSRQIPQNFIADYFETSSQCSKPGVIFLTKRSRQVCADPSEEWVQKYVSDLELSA
Chain of UniProt Q8DLJ8 (whole entry, looked up): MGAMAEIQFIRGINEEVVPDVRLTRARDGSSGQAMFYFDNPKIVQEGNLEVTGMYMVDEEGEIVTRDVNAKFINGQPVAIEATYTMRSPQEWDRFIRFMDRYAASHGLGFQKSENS
Chain of UniProt P04775 (whole entry, unmodified, looked up): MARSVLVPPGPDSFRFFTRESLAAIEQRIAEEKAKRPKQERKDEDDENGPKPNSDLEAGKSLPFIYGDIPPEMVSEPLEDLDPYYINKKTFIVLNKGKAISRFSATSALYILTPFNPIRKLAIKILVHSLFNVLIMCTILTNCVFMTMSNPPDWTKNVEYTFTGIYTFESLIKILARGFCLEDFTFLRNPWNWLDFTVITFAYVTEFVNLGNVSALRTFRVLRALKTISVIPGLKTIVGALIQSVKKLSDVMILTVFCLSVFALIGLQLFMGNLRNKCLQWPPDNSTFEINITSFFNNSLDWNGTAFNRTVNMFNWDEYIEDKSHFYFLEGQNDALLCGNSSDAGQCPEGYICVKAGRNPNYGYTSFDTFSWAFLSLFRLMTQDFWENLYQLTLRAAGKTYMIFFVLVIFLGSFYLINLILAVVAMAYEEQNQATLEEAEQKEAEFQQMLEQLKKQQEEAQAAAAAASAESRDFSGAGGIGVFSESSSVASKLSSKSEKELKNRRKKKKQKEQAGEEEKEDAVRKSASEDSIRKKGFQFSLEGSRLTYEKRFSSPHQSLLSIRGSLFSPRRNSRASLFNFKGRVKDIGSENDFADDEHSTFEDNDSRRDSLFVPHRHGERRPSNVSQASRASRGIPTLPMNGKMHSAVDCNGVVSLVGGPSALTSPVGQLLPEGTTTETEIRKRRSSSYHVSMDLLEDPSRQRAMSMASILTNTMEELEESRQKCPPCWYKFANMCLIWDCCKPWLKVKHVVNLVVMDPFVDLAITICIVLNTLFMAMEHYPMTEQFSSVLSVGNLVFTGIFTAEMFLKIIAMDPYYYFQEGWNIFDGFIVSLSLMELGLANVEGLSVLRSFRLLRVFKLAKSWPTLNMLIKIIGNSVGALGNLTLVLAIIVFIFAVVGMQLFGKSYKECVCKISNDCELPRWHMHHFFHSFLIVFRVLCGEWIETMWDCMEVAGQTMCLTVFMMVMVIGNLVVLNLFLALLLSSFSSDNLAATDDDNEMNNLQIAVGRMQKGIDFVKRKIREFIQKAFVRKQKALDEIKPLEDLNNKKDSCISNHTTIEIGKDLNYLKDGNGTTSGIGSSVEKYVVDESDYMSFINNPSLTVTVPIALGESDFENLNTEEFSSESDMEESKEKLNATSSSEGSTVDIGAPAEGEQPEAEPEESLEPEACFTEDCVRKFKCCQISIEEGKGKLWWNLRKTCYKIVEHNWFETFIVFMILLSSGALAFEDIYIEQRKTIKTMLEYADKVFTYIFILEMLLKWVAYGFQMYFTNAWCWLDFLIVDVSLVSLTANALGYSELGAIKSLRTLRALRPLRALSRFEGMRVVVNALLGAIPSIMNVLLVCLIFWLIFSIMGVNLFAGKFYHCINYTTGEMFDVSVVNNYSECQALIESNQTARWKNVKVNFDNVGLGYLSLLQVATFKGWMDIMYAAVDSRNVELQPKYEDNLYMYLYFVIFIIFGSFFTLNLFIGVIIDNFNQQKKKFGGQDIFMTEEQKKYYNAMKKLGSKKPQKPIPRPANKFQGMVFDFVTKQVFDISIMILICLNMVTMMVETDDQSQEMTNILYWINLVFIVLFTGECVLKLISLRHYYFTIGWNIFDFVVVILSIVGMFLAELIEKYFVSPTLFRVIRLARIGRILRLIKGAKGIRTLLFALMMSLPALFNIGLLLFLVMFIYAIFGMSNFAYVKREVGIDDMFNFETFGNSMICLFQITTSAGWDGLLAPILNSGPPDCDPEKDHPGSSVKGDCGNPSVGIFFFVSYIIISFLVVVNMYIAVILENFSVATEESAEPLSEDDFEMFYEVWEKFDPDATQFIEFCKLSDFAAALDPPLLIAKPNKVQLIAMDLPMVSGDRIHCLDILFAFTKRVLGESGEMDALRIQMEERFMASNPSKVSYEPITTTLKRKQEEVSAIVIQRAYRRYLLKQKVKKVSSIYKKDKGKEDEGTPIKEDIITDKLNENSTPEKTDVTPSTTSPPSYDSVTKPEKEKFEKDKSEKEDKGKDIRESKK

Substance	target or system	assay	test system	setting	scale	measurement	value
B1 (TRM112 N43R)	MTQ2 (Saccharomyces cerevisiae, UniProt Q03920)	eRF1 methylation			reference: wild-type enzyme, higher = more activity	MTase activity	58%
CCL3 (Homo sapiens, UniProt P10147)	CCR5 (Homo sapiens, UniProt P51681)	β-arrestin recruitment, agonist, Tango reporter assay	U2OS			EC50	6 nM
psbB C terminus (Thermosynechococcus elongatus)	psb28 2-116 (Thermosynechococcus elongatus, UniProt Q8DLJ8)	NMR titration		slow exchange		koff	10.1 ± 0.16 s⁻¹
TIMP2 N-terminal domain S4E/N38Q/V71N/H97R/T99S	MMP9 catalytic domain, no fibronectin 107-215 (Homo sapiens, UniProt P14780)	fluorogenic substrate cleavage, inhibitor, enzyme inhibition assay		apparent		Ki	1.28 nM
B2 (MIF4GD E200A)	SLBP, phosphorylated, multiple sites (Homo sapiens, UniProt Q14493)	SPR		pH 7.4, 25 °C, NaCl 150 mM		koff	0.00549 s⁻¹
SOCS3/ELOB/ELOC SOCS3 24-end (Mus musculus)	JAK2 JH1 836-1132, pY1007/pY1008 (Mus musculus, UniProt Q62120)	JAK2 kinase inhibition		together with: STAT5b Y+8 substrate	reference: wild-type SOCS3, higher = weaker inhibition	IC50 increase	10 fold
ANK2 fragment (Homo sapiens)	SCN2A 1080-1203 E1111A, CK2 phosphorylated (UniProt P04775)	SPR		pH 7.4, 25 °C, NaCl 150 mM		kon	140000 M⁻¹ s⁻¹
YFCHQYL			peptide, human polyclonal IgM RF ABR	concentration not given, 5 µg/mL mAb II-481 coated, together with: RF at 50% max binding concentration		inhibition	0%
B3 (UGT1A9)	COc1cc(-c2cc(=O)c3c(O)cc(O)cc3o2)ccc1O	steady-state kinetics		pH 7.4, 37 °C		Vmax/Km	3040 µL/min/mg
TDG (human, UniProt Q13569)	EP300 (Homo sapiens, UniProt Q09472)	H3K18 acetylation, activator, mass spectrometry			reference: without TDG, higher = faster	acetylation rate increase	1.7 fold
B4 (Calhm3)	Calhm1 (Mus musculus, UniProt D3Z291)	voltage-gated currents	Xenopus oocytes		higher = slower activation	activation time constant	100 ms
BicD coiled-coil domain 1 (Drosophila melanogaster)	DYNC1H1/DYNC1I2/DYNC1LI2/DYNLT1/DYNLRB1/DYNLL1 (Homo sapiens)	single-molecule TIRF			reference: wild-type complex, higher = more binding	binding frequency	4.5 fold
B5 (spy)	SecA/SecY/SecE/SecG (Escherichia coli)	co-sedimentation			reference: mature domain, higher = stronger binding	binding improvement by signal peptide	20 fold
AAEDWCKKGDT			peptide, human polyclonal IgM RF ABR	concentration not given, 5 µg/mL mAb II-481 coated, together with: RF at 50% max binding concentration		inhibition	0%

Some of these lines once more:
Substance	target or system	assay	test system	setting	scale	measurement	value
TDG (human, UniProt Q13569)	EP300 (Homo sapiens, UniProt Q09472)	H3K18 acetylation, activator, mass spectrometry			reference: without TDG, higher = faster	acetylation rate increase	1.7 fold
